Published values gathered from unrelated publications.
Protocols differ between the studies behind these lines.
Organism: Klebsiella pneumoniae

Structure (SMILES) | test | system | conditions | MIC
CC1(C)S[C@@H]2[C@H](NC(=O)[C@H](N)c3ccccc3)C(=O)N2[C@H]1C(=O)O | – | DOU CTX-M-15, Mueller Hinton broth | overnight, 37 °C | > 512 µg/mL
Cc1c(CN(C)C(=O)/C=C/c2cnc3c(c2)CC(NC(=O)OC(C)(C)C)C(=O)N3)oc2ccccc12 (stereo not drawn) | broth microdilution | AR-0066 | – | > 32 µg/mL
NC[C@H]1O[C@H](O[C@H]2[C@H](O)[C@@H](O[C@H]3O[C@H](CO)[C@@H](O)[C@H](N)[C@H]3O)[C@H](N)C[C@@H]2N)[C@H](N)C[C@@H]1O | broth microdilution | NCTC 13438 | 24 h, 5% CO2 | 32 µg/mL
CN(C)[C@@H]1C(O)=C(C(N)=O)C(=O)[C@@]2(O)C(O)=C3C(=O)c4c(O)cccc4[C@@](C)(O)[C@H]3C[C@@H]12 | broth microdilution | BNCC 359393 | – | 4 µg/mL
C[C@@H](O)[C@H]1C(=O)N2C(C(=O)O)=C(S[C@@H]3CN[C@H](C(=O)N(C)C)C3)[C@H](C)[C@H]12 | broth microdilution | KP | 18 h | 0.031 µg/mL
O=C(O)c1ccc(NCc2cccc(O)c2O)cc1 | broth microdilution | – | – | 256 µg/mL
O=C(Cc1ccccc1)N[C@@H]1C(=O)N2C(C(=O)O)=C(CSc3cccc4cccnc34)CS[C@H]12 | – | N11-2218 | – | > 128 µg/mL
[H]/N=C(/N)N[C@H]1[C@H](O)[C@@H](O)[C@H](O[C@@H]2O[C@@H](C)[C@](O)(C=O)[C@H]2O[C@@H]2O[C@@H](CO)[C@H](O)[C@@H](O)[C@@H]2NC)[C@@H](N/C(N)=N\[H])[C@@H]1O | – | DOU CTX-M-15, Mueller Hinton broth | overnight, 37 °C | > 512 µg/mL
CO/N=C(\C(=O)N[C@@H]1C(=O)N2C(C(=O)O)=CCS[C@H]12)c1csc(N)n1 | broth microdilution | BNCC 359393 | – | > 64 µg/mL
C[C@@H](O)[C@H]1C(=O)N2C(C(=O)O)=C(S[C@@H]3CN[C@H](C(=O)N(C)C)C3)[C@H](C)[C@H]12 | broth microdilution | ATCC 43816 acrAB knockout | – | < 0.5 µg/mL
FC(F)(F)Oc1ccc(OCCn2c(CNCC34CC5CC(CC(C5)C3)C4)nc3ccccc32)cc1 | – | ATCC 700603 | – | > 128 µg/mL
CN(C)c1ccc(O)c2c1C[C@H]1C[C@H]3[C@H](N(C)C)C(O)=C(C(N)=O)C(=O)[C@@]3(O)C(O)=C1C2=O | broth microdilution | NCTC 13438 | 24 h, ambient air | 8 µg/mL
C[C@@H](O)[C@H]1C(=O)N2C(C(=O)O)=C(SCCN=CN)C[C@H]12 | broth microdilution, MH medium | NCCP 16054 | 16 h, 37 °C, growth inhibition over 99% | 0.5 µM
CO/N=C(\C(=O)N[C@@H]1C(=O)N2C(C(=O)O)=C(COC(C)=O)CS[C@H]12)c1csc(N)n1 | – | DOU, CTX-M-15, Mueller-Hinton broth | overnight, 37 °C | 8 µg/mL
CNC(C)C1CCC(N)C(OC2C(N)CC(N)C(OC3OCC(C)(O)C(NC)C3O)C2O)O1 (stereo not drawn) | – | 9904, RPMI 1640 10% FBS | 18 to 24 h, 37 °C | 12.5 µM
Cc1c(CN(C)C(=O)/C=C/c2cnc3c(c2)CC(CCN)C(=O)N3)oc2ccccc12.Cl (stereo not drawn) | broth microdilution | AR-0347 | – | 8 µg/mL
CN(C)[C@@H]1C(O)=C(C(N)=O)C(=O)[C@@]2(O)C(O)=C3C(=O)c4c(O)cccc4[C@@](C)(O)[C@H]3C[C@@H]12 | – | ATCC BAA-2146 | – | 1000 µM
C[C@@H](O)[C@H]1C(=O)N2C(C(=O)O)=C(S[C@@H]3CN[C@H](C(=O)N(C)C)C3)[C@H](C)[C@H]12 | – | DOU CTX-M-15, Mueller Hinton broth | overnight, 37 °C | > 512 µg/mL
CC(C)C[C@@H]1NC(=O)[C@@H](Cc2ccccc2)NC(=O)[C@H](CCN)NC(=O)[C@@H](NC(=O)[C@H](CCN)NC(=O)[C@@H](N)[C@@H](C)O)CCNC(=O)[C@H]([C@@H](C)O)NC(=O)[C@H](CCN)NC(=O)[C@H](CCN)NC1=O | – | ATCC 13883 | compound alone | > 200 µg/mL
O=C(O)[C@H]1/C(=C/CO)O[C@@H]2CC(=O)N21 | – | ATCC 700603 ESBL | compound alone | 64 µg/mL
O=[N+]([O-])c1ccc2[nH]c(CNCC34CC5CC(CC(C5)C3)C4)nc2c1 | – | ATCC 700603 | – | > 128 µg/mL
NC(=O)[C@@H]1CC[C@@H]2CN1C(=O)N2OS(=O)(=O)O | – | 17-15 ESBL | compound alone | 16 µg/mL
CN(C)[C@@H]1C(O)=C(C(N)=O)C(=O)[C@@]2(O)C(O)=C3C(=O)c4c(O)cccc4[C@@](C)(O)[C@H]3C[C@@H]12 | broth microdilution | NCTC 13438 | 24 h, ambient air | 8 µg/mL

Structure (SMILES) | test | system | conditions | MIC
CC1(C)S[C@@H]2[C@H](NC(=O)[C@H](N)c3ccc(O)cc3)C(=O)N2[C@H]1C(=O)O | broth microdilution | – | – | 16 µg/mL
N=C(N)c1ccc(OCc2ccccc2COc2ccc(C(=N)N)cc2)cc1 | – | ATCC 13883 | compound alone | > 200 µg/mL
CCO/N=C(\C(=O)N[C@@H]1C(=O)N2C(C(=O)[O-])=C(Sc3nc(-c4cc[n+](C)cc4)cs3)CS[C@H]12)c1nsc(NP(=O)(O)O)n1 | broth microdilution | clinical isolate, Mueller-Hinton broth | 24 h, 37 °C | 400 µM
N=C(N)c1ccc(OCCC(CCOc2ccc(C(=N)N)cc2)c2ccccc2)cc1 (stereo not drawn) | – | ATCC 13883 | compound alone | > 200 µg/mL
CC1(C)S[C@@H]2[C@H](NC(=O)[C@H](N)c3ccccc3)C(=O)N2[C@H]1C(=O)O | broth microdilution | clinical isolate, Mueller-Hinton broth | 24 h, 37 °C | > 400 µM
C[C@H]1COc2c(N3CCN(C)CC3)c(F)cc3c(=O)c(C(=O)O)cn1c23 | agar dilution | 16-14 ESBL | – | 0.5 µg/mL
O=C(O)c1ccc(NCc2cccc([N+](=O)[O-])c2)cc1 | broth microdilution | – | – | 64 µg/mL
CCN1CCN(C(=O)N[C@@H](C(=O)N[C@@H]2C(=O)N3[C@@H]2SC(C)(C)[C@@H]3C(=O)O)c2ccccc2)C(=O)C1=O | broth microdilution | ATCC 43816 acrAB knockout | – | 1 µg/mL
CO/N=C(\C(=O)N[C@@H]1C(=O)N2C(C(=O)O)=C(CSc3nc(=O)c(=O)[nH]n3C)CS[C@H]12)c1csc(N)n1 | – | ALE CTX-M-15, Mueller Hinton broth | overnight, 37 °C | > 512 µg/mL
O=C(O)c1ccc(NCc2cc(Br)ccc2O)cc1 | broth microdilution | – | – | 64 µg/mL
C[C@@H](O)[C@H]1C(=O)N2C(C(=O)O)=C(SCCN=CN)C[C@H]12 | broth microdilution | NCTC 13438 | 24 h, 5% CO2 | 128 µg/mL
CN(C)[C@@H]1C(O)=C(C(N)=O)C(=O)[C@@]2(O)C(O)=C3C(=O)c4c(O)cccc4[C@@](C)(O)[C@H]3C[C@@H]12 | broth microdilution | ATCC 43816 acrAB knockout | – | 2 µg/mL
Cc1cc(NS(=O)(=O)c2ccc(N)cc2)no1 | broth microdilution | NCTC 13438 | 24 h, ambient air | > 512 µg/mL
c1ccc(OCCn2c(CNC34CC5CC(CC(C5)C3)C4)nc3ccccc32)cc1 | – | ATCC 700603 | – | > 128 µg/mL
N=C(N)c1ccc(OCc2cc(Br)cc(COc3ccc(C(=N)N)cc3)c2)cc1 | – | ATCC 13883 | compound alone | > 200 µg/mL
COc1cc(CNc2ccc(C(=O)O)cc2)ccc1O | broth microdilution | – | – | 64 µg/mL
CC(C)(O/N=C(\C(=O)N[C@@H]1C(=O)N2C(C(=O)[O-])=C(C[n+]3ccccc3)CS[C@H]12)c1csc(N)n1)C(=O)O | broth microdilution | NCTC 13438 | 24 h, 5% CO2 | 512 µg/mL
Cc1cc(-c2cn[nH]c2-c2cccc(OCc3cccc(C#N)c3)c2)cc(C)n1 | broth microdilution | ATCC 27736 | – | 1 µg/mL
CO/N=C(\C(=O)N[C@@H]1C(=O)N2C(C(=O)O)=C(COC(C)=O)CS[C@H]12)c1csc(N)n1 | broth microdilution | NCTC 13438 | 24 h, 5% CO2 | 256 µg/mL
O=C(Cc1ccccc1)N[C@@H]1C(=O)N2C(C(=O)O)=C(CSc3cccc4cccnc34)C[S+]([O-])[C@H]12 (stereo partly drawn) | – | N11-2218 | – | > 128 µg/mL
C[C@H]1COc2c(N3CCN(C)CC3)c(F)cc3c(=O)c(C(=O)O)cn1c23 | broth microdilution | ATCC 43816 acrAB knockout | – | < 0.5 µg/mL
Cc1c(CN(C)C(=O)/C=C/c2cnc3c(c2)CCC(=O)N3)oc2ccccc12 | broth microdilution | AR-0034 | – | 16 µg/mL

Some of these lines once more:
Structure (SMILES) | test | system | conditions | MIC
O=C(O)[C@H]1/C(=C/CO)O[C@@H]2CC(=O)N21 | – | ATCC 700603 ESBL | compound alone | 64 µg/mL
Cc1cc(NS(=O)(=O)c2ccc(N)cc2)no1 | broth microdilution | NCTC 13438 | 24 h, ambient air | > 512 µg/mL
CO/N=C(\C(=O)N[C@@H]1C(=O)N2C(C(=O)O)=CCS[C@H]12)c1csc(N)n1 | broth microdilution | BNCC 359393 | – | > 64 µg/mL
Cc1c(CN(C)C(=O)/C=C/c2cnc3c(c2)CC(NC(=O)OC(C)(C)C)C(=O)N3)oc2ccccc12 (stereo not drawn) | broth microdilution | AR-0066 | – | > 32 µg/mL
c1ccc(OCCn2c(CNC34CC5CC(CC(C5)C3)C4)nc3ccccc32)cc1 | – | ATCC 700603 | – | > 128 µg/mL
CC1(C)S[C@@H]2[C@H](NC(=O)[C@H](N)c3ccccc3)C(=O)N2[C@H]1C(=O)O | broth microdilution | clinical isolate, Mueller-Hinton broth | 24 h, 37 °C | > 400 µM
